Published values pooled from the literature.
Protocols differ between the studies behind these lines. Numbers after ± are the reported error.
Alpha-carbonic anhydrase: Alpha-carbonic anhydrase (Enterococcus faecium, UniProt Q3XYE8)
PLEKHA5 PH domain: Pleckstrin homology domain-containing family A member 5, PH domain (PLEKHA5, Homo sapiens, UniProt Q9HAU0)
Sequence of UniProt Q9HAU0 (whole entry, looked up): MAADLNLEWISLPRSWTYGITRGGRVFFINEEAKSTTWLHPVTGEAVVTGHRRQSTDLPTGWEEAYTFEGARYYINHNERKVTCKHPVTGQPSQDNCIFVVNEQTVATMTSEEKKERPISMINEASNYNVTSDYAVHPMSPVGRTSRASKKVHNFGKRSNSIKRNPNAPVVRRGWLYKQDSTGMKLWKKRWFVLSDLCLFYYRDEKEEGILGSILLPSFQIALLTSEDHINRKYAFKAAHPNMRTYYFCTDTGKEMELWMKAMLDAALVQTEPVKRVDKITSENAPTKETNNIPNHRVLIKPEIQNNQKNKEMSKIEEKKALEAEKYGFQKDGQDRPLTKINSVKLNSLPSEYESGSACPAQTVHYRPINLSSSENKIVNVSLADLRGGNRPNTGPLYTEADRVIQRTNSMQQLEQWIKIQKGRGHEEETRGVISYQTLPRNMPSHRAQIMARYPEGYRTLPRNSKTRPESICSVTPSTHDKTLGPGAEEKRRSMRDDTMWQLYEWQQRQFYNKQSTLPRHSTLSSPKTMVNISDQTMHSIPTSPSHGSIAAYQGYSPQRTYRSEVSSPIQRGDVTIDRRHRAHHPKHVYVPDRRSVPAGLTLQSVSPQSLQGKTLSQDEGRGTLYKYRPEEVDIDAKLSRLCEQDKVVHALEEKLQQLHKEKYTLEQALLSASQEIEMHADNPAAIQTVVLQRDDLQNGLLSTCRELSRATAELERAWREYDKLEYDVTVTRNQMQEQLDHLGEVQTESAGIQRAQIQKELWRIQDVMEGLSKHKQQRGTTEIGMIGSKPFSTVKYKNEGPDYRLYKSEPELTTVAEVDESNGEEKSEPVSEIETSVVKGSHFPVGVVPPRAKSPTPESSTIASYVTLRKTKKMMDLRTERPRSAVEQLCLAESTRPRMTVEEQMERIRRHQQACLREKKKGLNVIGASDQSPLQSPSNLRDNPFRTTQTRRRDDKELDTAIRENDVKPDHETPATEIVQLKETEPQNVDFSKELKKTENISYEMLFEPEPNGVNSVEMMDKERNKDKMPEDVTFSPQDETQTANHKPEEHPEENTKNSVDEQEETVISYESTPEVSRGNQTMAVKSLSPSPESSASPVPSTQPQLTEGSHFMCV
USP20 ZnF-UBD domain: Ubiquitin carboxyl-terminal hydrolase 20, ZnF-UBD domain (USP20, Homo sapiens, UniProt Q9Y2K6)
Sequence of UniProt Q9Y2K6 (whole entry, looked up): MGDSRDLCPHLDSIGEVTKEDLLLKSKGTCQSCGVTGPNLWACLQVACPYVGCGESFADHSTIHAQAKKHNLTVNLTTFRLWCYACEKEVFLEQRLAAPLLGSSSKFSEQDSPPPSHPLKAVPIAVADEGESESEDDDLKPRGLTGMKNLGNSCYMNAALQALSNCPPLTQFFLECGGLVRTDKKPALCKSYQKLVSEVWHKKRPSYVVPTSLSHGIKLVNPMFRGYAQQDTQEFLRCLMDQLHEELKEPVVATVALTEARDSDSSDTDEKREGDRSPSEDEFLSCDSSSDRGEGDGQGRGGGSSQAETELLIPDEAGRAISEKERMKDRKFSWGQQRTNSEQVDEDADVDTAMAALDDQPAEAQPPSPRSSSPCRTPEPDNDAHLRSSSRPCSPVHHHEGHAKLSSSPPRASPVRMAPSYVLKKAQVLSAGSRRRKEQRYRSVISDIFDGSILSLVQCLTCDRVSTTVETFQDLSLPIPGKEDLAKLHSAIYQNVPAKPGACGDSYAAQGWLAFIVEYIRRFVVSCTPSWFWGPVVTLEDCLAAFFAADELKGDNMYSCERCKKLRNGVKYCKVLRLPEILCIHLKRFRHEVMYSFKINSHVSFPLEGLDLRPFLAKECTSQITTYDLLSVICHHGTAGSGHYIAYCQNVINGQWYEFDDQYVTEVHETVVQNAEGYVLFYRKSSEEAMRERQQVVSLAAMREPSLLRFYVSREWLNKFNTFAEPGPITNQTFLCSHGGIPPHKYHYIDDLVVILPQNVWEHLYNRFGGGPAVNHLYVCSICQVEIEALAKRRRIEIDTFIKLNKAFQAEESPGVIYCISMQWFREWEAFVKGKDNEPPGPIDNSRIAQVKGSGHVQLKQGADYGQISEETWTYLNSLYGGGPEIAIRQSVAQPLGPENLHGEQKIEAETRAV
Sequence of UniProt P34972 (whole entry, looked up): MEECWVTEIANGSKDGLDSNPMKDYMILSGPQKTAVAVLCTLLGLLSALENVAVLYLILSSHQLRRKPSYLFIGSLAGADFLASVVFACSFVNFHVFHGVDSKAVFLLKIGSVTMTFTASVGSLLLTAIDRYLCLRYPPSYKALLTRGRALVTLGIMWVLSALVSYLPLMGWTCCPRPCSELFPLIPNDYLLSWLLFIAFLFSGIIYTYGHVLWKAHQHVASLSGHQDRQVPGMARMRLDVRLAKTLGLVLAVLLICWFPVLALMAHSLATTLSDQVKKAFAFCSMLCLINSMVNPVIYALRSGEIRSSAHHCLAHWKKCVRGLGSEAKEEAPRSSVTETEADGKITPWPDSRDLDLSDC
Sequence of UniProt P52790 (whole entry, unmodified, looked up): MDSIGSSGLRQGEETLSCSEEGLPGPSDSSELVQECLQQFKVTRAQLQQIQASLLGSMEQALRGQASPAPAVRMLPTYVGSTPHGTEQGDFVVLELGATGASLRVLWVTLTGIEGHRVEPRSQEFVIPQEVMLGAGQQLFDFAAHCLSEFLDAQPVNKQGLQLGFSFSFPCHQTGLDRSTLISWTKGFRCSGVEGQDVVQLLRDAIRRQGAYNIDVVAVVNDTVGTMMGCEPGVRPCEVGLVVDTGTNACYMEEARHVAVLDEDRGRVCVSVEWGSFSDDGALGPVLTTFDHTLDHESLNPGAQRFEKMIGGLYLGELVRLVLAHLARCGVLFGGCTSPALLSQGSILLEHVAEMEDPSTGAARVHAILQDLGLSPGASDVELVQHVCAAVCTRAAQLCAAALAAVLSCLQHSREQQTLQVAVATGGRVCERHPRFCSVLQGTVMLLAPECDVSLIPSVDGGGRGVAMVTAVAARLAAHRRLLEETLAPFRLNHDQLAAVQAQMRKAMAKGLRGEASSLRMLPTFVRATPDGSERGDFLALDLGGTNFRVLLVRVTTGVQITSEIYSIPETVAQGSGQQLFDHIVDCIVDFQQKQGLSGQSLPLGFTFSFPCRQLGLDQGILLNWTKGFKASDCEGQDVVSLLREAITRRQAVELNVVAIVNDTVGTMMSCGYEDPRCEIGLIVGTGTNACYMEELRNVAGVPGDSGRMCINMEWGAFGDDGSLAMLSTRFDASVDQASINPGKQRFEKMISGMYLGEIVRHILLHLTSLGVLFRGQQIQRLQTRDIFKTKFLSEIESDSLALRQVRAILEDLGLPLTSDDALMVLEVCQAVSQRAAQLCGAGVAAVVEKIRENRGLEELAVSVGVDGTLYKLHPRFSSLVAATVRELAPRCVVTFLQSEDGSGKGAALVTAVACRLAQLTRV
Sequence of UniProt Q9UNQ0 (whole entry, looked up): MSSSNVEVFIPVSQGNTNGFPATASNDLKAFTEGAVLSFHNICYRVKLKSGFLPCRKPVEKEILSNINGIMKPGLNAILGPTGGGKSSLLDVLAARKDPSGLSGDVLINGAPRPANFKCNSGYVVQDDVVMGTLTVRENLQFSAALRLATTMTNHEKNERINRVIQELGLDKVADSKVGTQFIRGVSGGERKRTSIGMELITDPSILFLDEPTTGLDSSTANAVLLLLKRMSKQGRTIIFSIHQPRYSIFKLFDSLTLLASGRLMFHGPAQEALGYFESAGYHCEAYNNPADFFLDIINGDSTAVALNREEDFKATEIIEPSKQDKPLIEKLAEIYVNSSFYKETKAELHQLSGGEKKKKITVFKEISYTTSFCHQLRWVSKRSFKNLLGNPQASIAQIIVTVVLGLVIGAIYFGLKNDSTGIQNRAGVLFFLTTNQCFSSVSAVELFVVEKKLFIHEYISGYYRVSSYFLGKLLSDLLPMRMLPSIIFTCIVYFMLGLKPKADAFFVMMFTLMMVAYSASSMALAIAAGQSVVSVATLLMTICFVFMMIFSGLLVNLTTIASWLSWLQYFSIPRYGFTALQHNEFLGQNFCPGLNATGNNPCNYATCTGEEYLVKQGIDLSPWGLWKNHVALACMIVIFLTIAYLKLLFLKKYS
Sequence of UniProt P05183 (whole entry, looked up): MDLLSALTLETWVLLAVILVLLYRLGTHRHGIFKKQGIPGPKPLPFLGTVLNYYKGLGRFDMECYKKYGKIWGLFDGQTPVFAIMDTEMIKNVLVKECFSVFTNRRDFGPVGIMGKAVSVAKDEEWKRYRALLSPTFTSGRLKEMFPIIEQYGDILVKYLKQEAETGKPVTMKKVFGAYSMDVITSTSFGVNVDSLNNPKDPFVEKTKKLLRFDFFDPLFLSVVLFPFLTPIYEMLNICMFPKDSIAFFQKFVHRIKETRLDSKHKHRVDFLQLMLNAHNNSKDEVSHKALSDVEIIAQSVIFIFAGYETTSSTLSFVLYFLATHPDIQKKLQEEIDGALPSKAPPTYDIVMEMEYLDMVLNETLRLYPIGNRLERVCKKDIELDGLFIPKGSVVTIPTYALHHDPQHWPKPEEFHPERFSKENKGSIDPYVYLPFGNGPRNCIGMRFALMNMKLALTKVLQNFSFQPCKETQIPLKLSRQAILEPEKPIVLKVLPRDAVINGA
Sequence of UniProt Q9UHM6 (whole entry, looked up): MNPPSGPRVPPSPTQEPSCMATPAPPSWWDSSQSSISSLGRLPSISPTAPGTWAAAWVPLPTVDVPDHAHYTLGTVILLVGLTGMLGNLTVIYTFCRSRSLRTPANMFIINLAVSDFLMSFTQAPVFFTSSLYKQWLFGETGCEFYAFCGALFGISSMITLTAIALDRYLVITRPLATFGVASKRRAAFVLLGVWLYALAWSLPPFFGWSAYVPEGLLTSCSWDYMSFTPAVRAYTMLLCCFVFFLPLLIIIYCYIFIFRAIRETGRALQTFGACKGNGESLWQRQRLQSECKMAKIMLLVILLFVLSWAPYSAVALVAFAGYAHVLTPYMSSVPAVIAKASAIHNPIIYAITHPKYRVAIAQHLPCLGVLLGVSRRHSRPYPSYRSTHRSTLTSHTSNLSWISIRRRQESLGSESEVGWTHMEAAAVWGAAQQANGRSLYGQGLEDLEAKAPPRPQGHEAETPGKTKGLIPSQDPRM

CC1(C)CCCN(CC(=O)Nc2nnc(S(N)(=O)=O)s2)C1 — Ki (Alpha-carbonic anhydrase; CO2 hydration, inhibitor, stopped-flow kinetics): 0.0116 µM
N#Cc1ccc(COc2cccc(C3CCN(Cc4nc5ccc(C(=O)O)cc5n4C[C@@H]4CCO4)CC3)n2)c(F)c1 — Ki (chloride channel): 2.9 µM
CCOc1cccc(C(=O)CC(SCc2ccc(Cl)cc2)C(=O)O)c1 (stereo not shown) — Ki (PLEKHA5 PH domain; PLEKHA5 PI(4,5)P2 binding, fluorescence polarization; with: BODIPY-PI(4,5)P2 tracer): 16.4 ± 1.8 µM
Cc1ccc(CC(=O)Nc2nnc(S(N)(=O)=O)s2)cc1 — Ki (Alpha-carbonic anhydrase; CO2 hydration, inhibitor, stopped-flow kinetics): 0.0694 µM
COc1cc(Cl)c(S(=O)(=O)N2CCCCC2)cc1Cl — Ki (Melanopsin (OPN4, Homo sapiens, UniProt Q9UHM6); binding, radioligand binding; CHO membranes expressing OPN4; with: [3H]-labelled ligand): 0.00048 µM
O=C(O)CCc1cnn(-c2ccccc2)c1 — Kd (USP20 ZnF-UBD domain): > 1000 µM
CCOc1ccc(C(=O)CC(SCc2ccc(F)cc2)C(=O)O)cc1 (stereo not shown) — Ki (PLEKHA5 PH domain; PLEKHA5 PI(4,5)P2 binding, fluorescence polarization; with: BODIPY-PI(4,5)P2 tracer): 52.9 ± 8.4 µM
NS(=O)(=O)c1nnc(NC(=O)C2CCC3(CCCCC3)C2)s1 (stereo not shown) — Ki (Alpha-carbonic anhydrase; CO2 hydration, inhibitor, stopped-flow kinetics): 0.0669 µM
C#CCOc1cccc(C(=O)CC(SCc2cccc(Br)c2)C(=O)O)c1 (stereo not shown) — Ki (PLEKHA5 PH domain; PLEKHA5 PI(4,5)P2 binding, fluorescence polarization; with: BODIPY-PI(4,5)P2 tracer): 10.5 ± 1.9 µM
NS(=O)(=O)c1nnc(NC(=O)CC2CC3CCC2C3)s1 (stereo not shown) — Ki (Alpha-carbonic anhydrase; CO2 hydration, inhibitor, stopped-flow kinetics): 0.0289 µM
CCOC(=O)[C@H](CCSC)NC(=O)c1ccc(C2CC2)c(Cc2ccc(F)cc2)n1 — Ki (CNR2 (Homo sapiens, UniProt P34972); binding): 0.012 µM
NCCCC(=O)Nc1nnc(S(N)(=O)=O)s1 — Ki (Alpha-carbonic anhydrase; CO2 hydration, inhibitor, stopped-flow kinetics): 0.0492 µM
O=C(O)c1ccc(Cn2ccnc2)o1 — Ki (WDR5 (Homo sapiens, UniProt P61964); fluorescence polarization competition; with: FITC-MLL1 peptide): 150 ± 8.4 µM
COc1cc(N2CCC(N3CCN(C)CC3)CC2)ccc1Nc1ncc(Cl)c(Nc2ccccc2P(C)(C)=O)n1 — Ki (ABCG2 (Homo sapiens, UniProt Q9UNQ0); transport, inhibitor; C2BBe1; with: cladribine 10 µM substrate): 10.1 µM
Cc1ccc(S(=O)(=O)n2cc(/C=N/NC(=S)Nc3ccc([N+](=O)[O-])cc3)c3ccccc32)cc1 — Ki (mushroom tyrosinase; inhibitor; with: L-DOPA): 3.42 ± 0.03 µM
O=c1c2ccccc2nc2n1CCc1c-2[nH]c2ccccc12 — Ki (Cytochrome P450 3A2 (Cyp3a2, Rattus norvegicus, UniProt P05183); enzyme activity, inhibitor; Sprague-Dawley rat, male, liver microsomes; 30 (unit not given), pH 7.4): 17.3 µM
COc1ccccc1C(=O)CC(SCc1ccc(Cl)cc1)C(=O)O (stereo not shown) — Ki (PLEKHA5 PH domain; PLEKHA5 PI(4,5)P2 binding, fluorescence polarization; with: BODIPY-PI(4,5)P2 tracer): 78.9 ± 5 µM
Cc1ccc(CCC(=O)Nc2nnc(S(N)(=O)=O)s2)cc1 — Ki (Alpha-carbonic anhydrase; CO2 hydration, inhibitor, stopped-flow kinetics): 0.0316 µM
CCOC(=O)c1cc(-c2ccc(OCC)cc2)oc1-c1ccc(Cl)cc1 — Ki (PLEKHA5 PH domain; PLEKHA5 PI(4,5)P2 binding, fluorescence polarization; with: BODIPY-PI(4,5)P2 tracer): > 100 µM
OC[C@H]1OC(O)[C@H](O)[C@@H](O)[C@@H]1O (stereo partly shown) — Ki (Hexokinase-3 (HK3, Homo sapiens, UniProt P52790, R480W); substrate inhibition; mutant R480W, complete substrate inhibition model, with: ATP 20 mM): 14000 ± 1000 µM
CCOc1ccc(C(=O)CC(SCc2ccc(OC)cc2)C(=O)O)cc1 (stereo not shown) — Ki (PLEKHA5 PH domain; PLEKHA5 PI(4,5)P2 binding, fluorescence polarization; with: BODIPY-PI(4,5)P2 tracer): 90 ± 13 µM
O=C(O)CCc1cn2cccnc2n1 — Kd (USP20 ZnF-UBD domain): 956 µM

Repeated from above:
NCCCC(=O)Nc1nnc(S(N)(=O)=O)s1 — Ki (Alpha-carbonic anhydrase; CO2 hydration, inhibitor, stopped-flow kinetics): 0.0492 µM
